# Results collected from several papers.
# Each line is one published result; not all experiments were run side by side.
# Chain of UniProt O00506 (whole entry, looked up): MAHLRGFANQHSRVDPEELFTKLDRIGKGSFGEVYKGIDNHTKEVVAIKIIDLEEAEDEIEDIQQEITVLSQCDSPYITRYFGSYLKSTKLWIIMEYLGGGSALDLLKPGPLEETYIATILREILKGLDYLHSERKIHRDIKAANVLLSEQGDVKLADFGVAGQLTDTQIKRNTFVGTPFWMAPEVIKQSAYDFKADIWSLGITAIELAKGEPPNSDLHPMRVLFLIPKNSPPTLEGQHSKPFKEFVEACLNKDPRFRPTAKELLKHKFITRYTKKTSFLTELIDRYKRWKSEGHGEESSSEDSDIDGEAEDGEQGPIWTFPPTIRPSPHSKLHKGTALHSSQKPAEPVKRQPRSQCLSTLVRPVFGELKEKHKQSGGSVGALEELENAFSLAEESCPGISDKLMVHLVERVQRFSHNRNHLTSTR
SMILES,tested on,test,system,setting,quantity,value
CC(C)(N)COCC(=O)N1CCC[C@H](C(=O)NCc2nc(-c3ccc(C(F)(F)F)cc3)cs2)C1,,,"male Sprague-Dawley rat, plasma","oral, 3 mg/kg",AUC,0.065 µM·h
O=c1c(O[C@@H]2O[C@H](CO)[C@H](O)[C@H](O)[C@H]2O)c(-c2ccc(O)c(O)c2)oc2cc(O)cc(O)c12,,,Caco-2,100 µg/mL,efflux ratio,0.9
COc1ccccc1-c1nc(N2CCC(c3ccccn3)C2)c2ccccc2n1 (stereo not drawn),,metabolic stability,"mouse, liver microsomes",,microsomal CLint,471 µL/min/mg
N=C(N)c1ccc(OCCCCCCCOc2ccc(C(=N)N)cc2)cc1,,haemolysis,sheep,"200 µg/mL, 1 h",haemolysis,0.3%
Cc1cc(C)c(CNC(=O)c2cc(Cl)c3c(c2C)O[C@@](C)([C@H]2CC[C@H](N(C)C)CC2)O3)c(=O)[nH]1,,,Caco-2,3 µM,Papp B→A,19.7 ×10⁻⁶ cm/s
CNc1ncc2c(/C=C/C(=O)N3CCC(OC)CC3)nn(Cc3cccc(C(F)(F)F)c3)c2n1,"Serine/threonine-protein kinase 25 (STK25, Homo sapiens, UniProt O00506)","enzyme activity, inhibitor, radiometric",,1 µM,remaining activity,95%
COc1cccc(-c2n[nH]c(SCc3ccccn3)n2)c1OC,,,"male Sprague-Dawley rat, plasma","oral, 100 mg/kg, 1 h, single dose",concentration,52100 ng/mL
O=C(COc1ccc(Cl)cc1)NC12CC(c3nnc([C@H]4C[C@@H](OC(F)(F)F)C4)o3)(C1)C2,,,"human, plasma","oral, 45 mg, multiple doses, once daily, healthy volunteers",half-life,43.6 h
N=C(N)c1ccccc1OCc1cccc(COc2ccccc2C(=N)N)c1,,haemolysis,sheep,"200 µg/mL, 20 h",haemolysis,0%
NCCOCC(=O)N1CCC[C@H](C(=O)NCc2nc(-c3ccc(C(F)(F)F)cc3)cs2)C1,,metabolic stability,"human, liver microsomes",0.5 µM,scaled CLint,< 3.5 mL/min/kg
O=c1c2c(F)cc(Cl)cc2[nH]c2cccc(Oc3ccc(OC(F)(F)F)cc3)c12,,metabolic stability,"mouse, liver microsomes","1 µM, pH 7.4",microsomal CLint,12.2 µL/min/mg
COc1cc(C(=O)NC2CCN(C)CC2)c(F)cc1Nc1ncc(C(F)(F)F)c(Oc2cccc3c2C(=O)N(C)C3)n1,,,"human, plasma","oral, 300 mg, single dose, patients",Vd/F,166 L
Fc1cccc(Nc2nc(-c3ccccn3)nc3ccccc23)c1,,metabolic stability,"mouse, liver microsomes",,microsomal CLint,215 µL/min/mg
NCc1cc2c(cc1F)C(=O)N(C1CCC(=O)NC1=O)C2 (stereo not drawn),,,"male cynomolgus monkey, plasma","oral, 0.3 mg/kg, 15 min",concentration,0.45 ng/mL
O=C1CC[C@H](N2Cc3cc(N4CCN(CC5CCN(c6ccc([C@@H]7c8ccc(O)cc8CC[C@@H]7c7ccccc7)cc6)CC5)CC4)ccc3C2=O)C(=O)N1,,,"male Sprague-Dawley rat, plasma","oral, 20 mg/kg, fasted",MRT(0-inf),4.74 h
COc1ccc([C@@H]2CN(C(=O)[C@@H](O)CO)C[C@@]2(C)[C@@H](C)O)cc1OC1CN(c2ccc(C)cn2)C1,,,"human, plasma","oral, 20 mg, single dose, healthy volunteers",Cmax,482 ng/mL
O=C(Nc1ccccc1)C1(C(F)(F)F)CC1,,,water,24 h,logP,2.27
N=C(N)c1ccccc1OCc1ccccc1COc1ccccc1C(=N)N,,haemolysis,sheep,"200 µg/mL, 1 h",haemolysis,0%
CCn1ncc2c(N3CCC(c4ccccn4)C3)nc(-c3ccccn3)nc21 (stereo not drawn),,metabolic stability,"mouse, liver microsomes",,microsomal CLint,63 µL/min/mg
COc1ccc([C@@H](O)c2cc(-c3ncnc4cc(N5CCOCC5)ccc34)c(F)cc2Cl)nn1,,,"human, plasma","oral, 200 mg, multiple doses, once daily, patients",Cmax,1420 ng/mL
Cc1ccc(S(=O)(=O)n2cc3c4c2C(=O)C(NCc2ccc(Cl)cc2)=CC4=NCC3)cc1,,,"rat, plasma","intravenous, 5 mg/kg, single dose",AUC(0-t),1590 ng·h/mL
O=C(c1ccc(F)cc1)C1CCN(CCn2c(=O)[nH]c3ccccc3c2=O)CC1,,"metabolic stability, mass spectrometry","human, liver microsomes",45 min,compound remaining,39.8%
Nc1ccc(C=Cc2ccc([125I])cc2)cc1,,,"Swiss mouse, brain","intravenous, 5 µCi, 30 min",tracer uptake,2.65 %ID/g
CCn1ccc2c([C@](O)(c3ccc(C(F)(F)F)nc3)C3CC3)n(C)nc2c1=O,,metabolic stability,"human, hepatocytes","0.5 µM, pH 7.4",hepatocyte CLint,1.8 µL/min/10⁶ cells
CCN1CCN(Cc2ccc(NC(=O)c3ccc(C)c(NC(=O)c4cncc(-c5cccs5)c4)c3)cc2C(F)(F)F)CC1,,,"mouse, plasma","intraperitoneal, 10 mg/kg, single dose",AUC(0-t),1120 ng·h/mL
CC(=O)N(C)[C@H]1CCN(C(=O)c2cnc3c(c2)C[C@](C)(c2ccc(F)cc2)N3)C1,,,"male human, plasma","oral, 60 mg, multiple doses, once daily, steady state",Cmax,1630 nM
CCCCNC(=O)NS(=O)(=O)c1ccc(C)cc1,,metabolic stability,"human, hepatocytes","0.5 µM, pH 7.4",hepatocyte CLint,3.4 µL/min/10⁶ cells
CCCCCOC(=O)Nc1nc(=O)n([C@@H]2O[C@H](C)[C@@H](O)[C@H]2O)cc1F,,,Caco-2,4 h,efflux ratio,4.42
c1ccc(-c2nc(N3CCOCC3)c3ccccc3n2)nc1,,metabolic stability,"mouse, liver microsomes",,microsomal CLint,165 µL/min/mg
CC[C@@](O)(c1ccc(C(F)(F)F)nc1)c1c2ccn(C3CC3)c(=O)c2nn1C,,metabolic stability,"human, hepatocytes","0.5 µM, pH 7.4",hepatocyte CLint,2.4 µL/min/10⁶ cells
O=C(Nc1ccc(CN2CCOCC2)c(C(F)(F)F)c1)c1ccc(C#Cc2cccc3cnccc23)cn1,,metabolic stability,"mouse, liver microsomes",0 h,compound remaining,100%
O=c1c2cc(F)c(Oc3ccc(OC(F)(F)F)cc3)cc2[nH]c2cc(Cl)cc(F)c12,,metabolic stability,"mouse, liver microsomes","1 µM, pH 7.4",microsomal CLint,4.66 µL/min/mg
COc1ccc2nc(-c3cc(N(C)C)ccn3)c(Nc3ccc(F)cc3)n2c1,,metabolic stability,"rat, hepatocytes",,hepatocyte CLint,> 300 µL/min/10⁶ cells
CCn1cnc2c([C@@](O)(CC)c3ccc(C(F)(F)F)nc3)n(C)nc2c1=O,,metabolic stability,"human, hepatocytes","0.5 µM, pH 7.4",hepatocyte CLint,3.1 µL/min/10⁶ cells
COc1ccc2c(c1)CN(C(=O)CCN1CCC(Cc3ccccc3)CC1)CC[S@@+]2[O-],,,"male human, plasma","intravenous, 0.05 mg/kg, healthy volunteers",Vd,71.4 L
CCOC(=O)[C@@]12C[C@@H]1[C@@H](n1ccc3c(NC)nc(C#Cc4ccc(Cl)s4)nc31)[C@H](O)[C@@H]2O,,,"male Sprague-Dawley rat, plasma","oral, 1 mg/kg",Tmax,0.83 h
NCCOCC(=O)N1CCC[C@H](C(=O)NCc2nc(-c3ccc(C4CC4)cc3)cs2)C1,,metabolic stability,"male Sprague-Dawley rat, liver microsomes",0.5 µM,microsomal CLint,< 3 µL/min/mg
CC[C@@](N)(c1cnc(C(F)(F)F)c(Cl)c1)c1c2ncn(C3CC3)c(=O)c2nn1C,,metabolic stability,"male Sprague-Dawley rat, hepatocytes","0.5 µM, pH 7.4",hepatocyte CLint,< 0.5 µL/min/10⁶ cells
Fc1ccccc1Nc1nc(-c2ccccn2)nc2ccccc12,,metabolic stability,"mouse, liver microsomes",,microsomal CLint,196 µL/min/mg
N#C[C@@]12C[C@@H]1[C@@H](n1cnc3c(N[C@@H](C4CCC4)C4CC4)nc(I)nc31)[C@H](O)[C@@H]2O,,,"male Wistar rat, plasma","oral, 1 mg/kg",AUC(0-t),15.9 ng·h/mL
c1ccc(C2CCN(c3nc(-c4cnn5cccnc45)nc4ccccc34)C2)nc1 (stereo not drawn),,,PAMPA,"10 µM, 3 h, pH 7.4",Papp,22.4 ×10⁻⁶ cm/s
CCc1cc(-c2noc(-c3cc(OC)nc(C4CCCC4)c3)n2)cc(C)c1OC[C@@H](O)CO,,,"Wistar rat, plasma","oral, 1 mg/kg, 48 h, single dose",concentration,5.5 ng/mL
